Results pooled from the literature.
A part holds a random share of what one study measured. Positions count from the first letter of the parent shown.

Sample 1
Target: Ras GTPase-activating protein-binding protein 1, full length (G3BP1, Homo sapiens, UniProt Q13283)
Chain of UniProt Q13283 (whole entry, looked up): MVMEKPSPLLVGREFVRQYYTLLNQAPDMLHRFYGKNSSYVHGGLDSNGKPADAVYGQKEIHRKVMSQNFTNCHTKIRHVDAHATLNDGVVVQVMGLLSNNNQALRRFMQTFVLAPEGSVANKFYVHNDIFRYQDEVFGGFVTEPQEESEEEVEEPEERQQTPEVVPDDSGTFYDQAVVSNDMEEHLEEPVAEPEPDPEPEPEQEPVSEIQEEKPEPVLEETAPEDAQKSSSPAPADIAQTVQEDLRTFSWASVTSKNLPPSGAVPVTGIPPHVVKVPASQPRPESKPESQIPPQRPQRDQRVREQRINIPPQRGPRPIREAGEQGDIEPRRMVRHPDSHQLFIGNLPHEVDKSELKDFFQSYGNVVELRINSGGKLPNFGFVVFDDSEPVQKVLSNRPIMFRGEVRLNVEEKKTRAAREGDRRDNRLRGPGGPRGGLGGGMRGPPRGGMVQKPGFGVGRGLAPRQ
Method: RNA Bind-n-Seq
Molecule type: RNA
Sample: in vitro
Concentration: 200 nM
Notes: whole 134-nt RNA, ends assumed
Together with: 150 mM LiCl
Reference: input library
Direction: higher = stronger binding
Each molecule: 7-deaza-guanosine replaces G
With `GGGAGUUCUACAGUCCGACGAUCGCAGGAAGUAAAAACAAAUGGAAAUGCUUCGGAUAGUGGCAGGGGUGGGGGUUGCUAAGGAAAGGGUGGGAUGCGAGUGGGUAAAGAGUUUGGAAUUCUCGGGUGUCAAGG` the log2 enrichment was 0.113.
For `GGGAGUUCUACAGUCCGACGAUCUCAAGUCCUGUGCUACACAUCGUAUGUACCGAAUCGGGUGGGAAAAAGGGUGGGAAAGUAUUAUGUUACGCCGUUCGGAUCUGCACUUCCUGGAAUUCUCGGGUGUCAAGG`, the log2 enrichment was -0.528.
The log2 enrichment of `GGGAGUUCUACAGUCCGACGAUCUAACUUUAGAGGAGGAUCUGAUGGAUAUGGCAGUGGACGUGGAUUUGUGGAUGGCUAUAAUGGGUAUGGAGGAGGACCUGGAGGUGGCAAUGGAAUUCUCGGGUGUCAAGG` is reported as 0.228.
With `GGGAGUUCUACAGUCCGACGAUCAGUCCUGUGCUACACAUCGUAUGUACCGAAUCGGGGAAAAGGGGAAAAGGGAAAAGGGAAAGUAUUAUGUUACGCCGUUCGGAUCUGCACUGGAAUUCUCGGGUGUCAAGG` the log2 enrichment was 0.0952.
`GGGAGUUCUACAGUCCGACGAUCAGUCCUGUGCUACACAUCGUAUGUACCGAAUCGGUUUUUUGGUUUUUUGGUUUUUUGGAAAGUAUUAUGUUACGCCGUUCGGAUCUGCACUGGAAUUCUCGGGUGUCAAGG` gave a log2 enrichment of -0.961.
`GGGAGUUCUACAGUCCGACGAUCUAACUUUAGAGGAGGAUCUGAUGGAUAUGGCAGUGGACGUGGAUUUGGGGAUGGCUAUAAUGGGUAUGGAGGAGGAUCUGGAGGUGGCAAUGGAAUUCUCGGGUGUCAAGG` has a log2 enrichment of 0.222.
`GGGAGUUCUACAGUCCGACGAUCUCAAGUCCUGUGCUACACAUCGUAUGUACCGAAUCGGGGAGGGGAGGGGUGGGGAAAGUAUUAUGUUACGCCGUUCGGAUCUGCACUUCCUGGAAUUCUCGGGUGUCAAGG` has a log2 enrichment of 0.278.
`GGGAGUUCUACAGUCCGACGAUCUGGCCCUGGUGGCAUGCGGGGAGGAAGAGCUGGCCUCAUGGAUCGUGGUGGUCCCGGUGGAAUGUUCAGAGGUGGCCGUGGUGGAGACAGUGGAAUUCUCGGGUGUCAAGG` gave a log2 enrichment of 0.298.

Sample 2
Target: CCNE1, cyclin fold, Cln2 fusion (human)
Method: yeast growth competition, sequencing
Sample: yeast
Notes: weak parent motif
Reference: not given
Direction: higher = stronger binding
Parent: SLBP docking peptide (human); ARYKRKLLINDFG
Under “normalised enrichment score”, `R2K` is recorded as 1.03.
For `L8Q`, “normalised enrichment score” read 0.31.
For `N10D`, “normalised enrichment score” read 0.799.
For `I9T`, “normalised enrichment score” read 0.746.
Under “normalised enrichment score”, `G13E` is recorded as 1.18.
`D11F` — result for “normalised enrichment score”: 1.36.

Sample 3
Target: ABI1, truncated, D143A, DHFR fusion (Arabidopsis thaliana)
Method: DHFR PCA, deep sequencing
Sample: yeast
Notes: methotrexate growth selection, single substitutions
Together with: (+)-ABA 4.8 µM
Reference: wild-type fitted maximum
Direction: higher = stronger binding
Parent: PYL1, truncated, DHFR fusion (Arabidopsis thaliana); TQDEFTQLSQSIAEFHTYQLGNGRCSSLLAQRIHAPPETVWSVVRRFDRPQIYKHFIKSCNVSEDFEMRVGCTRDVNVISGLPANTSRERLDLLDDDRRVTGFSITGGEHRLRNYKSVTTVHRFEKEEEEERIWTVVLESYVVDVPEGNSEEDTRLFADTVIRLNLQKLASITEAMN; partner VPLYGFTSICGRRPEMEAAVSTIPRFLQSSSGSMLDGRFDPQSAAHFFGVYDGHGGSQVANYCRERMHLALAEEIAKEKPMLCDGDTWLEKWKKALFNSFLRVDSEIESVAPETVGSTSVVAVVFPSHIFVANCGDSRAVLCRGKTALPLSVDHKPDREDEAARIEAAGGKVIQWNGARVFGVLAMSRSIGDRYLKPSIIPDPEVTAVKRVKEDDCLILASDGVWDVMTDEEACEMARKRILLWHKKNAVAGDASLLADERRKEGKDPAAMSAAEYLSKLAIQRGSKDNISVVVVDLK
`Q2V`: “relative binding score” 77%.
`R111K` — result for “relative binding score”: 36%.
Under “relative binding score”, `P50E` is recorded as 7.75%.
Under “relative binding score”, `Q51V` is recorded as 0.413%.

Other studies, line by line
With `PhoQ, residues 284 288 289 292 302 303 WSHMKI` the fold induction was 0.993 (PhoP, residues 12 14 15 18 19 NQCAL (Escherichia coli, UniProt P23836); Sort-seq, measured: YFP reporter; E. coli; PhoQ-PhoP variant library, together with: 10 µM Mg2+; reference: high Mg2+ state, higher = stronger signaling).

A few entries again (sample 2):
For `N10D`, “normalised enrichment score” read 0.799.
For `L8Q`, “normalised enrichment score” read 0.31.
